Results of several laboratories.
Each numbered part is a random draw from the data of one study; scales do not carry over between parts.

Sample 1 — method: universal PBM; form: double-stranded DNA, one strand shown; matrix: in vitro; tested at: 600 nM; reading: higher = stronger binding
Target: Sal-like protein 4, full length isoform A (SALL4, Homo sapiens, UniProt Q9UJQ4, residues 1-1053)
Chain of UniProt Q9UJQ4 (whole entry, looked up): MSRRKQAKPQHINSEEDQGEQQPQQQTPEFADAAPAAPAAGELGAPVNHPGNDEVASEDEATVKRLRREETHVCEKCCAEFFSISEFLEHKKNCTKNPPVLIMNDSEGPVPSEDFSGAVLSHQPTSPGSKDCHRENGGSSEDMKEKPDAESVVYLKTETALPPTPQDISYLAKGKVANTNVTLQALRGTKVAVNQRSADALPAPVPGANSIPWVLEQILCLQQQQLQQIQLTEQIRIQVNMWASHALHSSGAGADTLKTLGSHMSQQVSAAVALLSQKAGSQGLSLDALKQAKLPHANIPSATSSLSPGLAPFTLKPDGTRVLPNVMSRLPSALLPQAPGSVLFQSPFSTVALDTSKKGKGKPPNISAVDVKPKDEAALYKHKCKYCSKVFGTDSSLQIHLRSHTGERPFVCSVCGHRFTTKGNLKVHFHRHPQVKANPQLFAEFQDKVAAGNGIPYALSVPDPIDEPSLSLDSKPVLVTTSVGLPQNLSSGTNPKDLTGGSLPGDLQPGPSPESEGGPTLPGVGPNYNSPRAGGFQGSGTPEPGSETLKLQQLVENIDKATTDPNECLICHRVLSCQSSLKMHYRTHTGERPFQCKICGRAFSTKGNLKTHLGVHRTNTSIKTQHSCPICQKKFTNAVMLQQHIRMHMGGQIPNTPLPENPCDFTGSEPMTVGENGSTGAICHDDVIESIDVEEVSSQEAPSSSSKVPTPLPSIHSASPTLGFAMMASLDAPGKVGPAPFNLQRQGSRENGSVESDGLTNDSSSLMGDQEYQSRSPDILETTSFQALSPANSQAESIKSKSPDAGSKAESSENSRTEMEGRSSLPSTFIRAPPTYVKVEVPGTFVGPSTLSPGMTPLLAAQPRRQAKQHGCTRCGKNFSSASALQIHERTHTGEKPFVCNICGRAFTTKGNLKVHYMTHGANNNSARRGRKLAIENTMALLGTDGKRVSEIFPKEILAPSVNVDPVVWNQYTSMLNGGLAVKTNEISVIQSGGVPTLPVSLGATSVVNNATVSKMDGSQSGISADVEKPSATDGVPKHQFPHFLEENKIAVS
Setting: 8-mer, flanks averaged, mean of replicates
Oligonucleotide	E-score
GATTGAGC	0.0333
CCGAAGAA	-0.0634
TCTACAGA	0.0308
CCCATTAC	-0.043
ACATACCA	0.0875
AACTGCCC	-0.166
CCTCCCTC	-0.157
TACAACGA	0.178
ACGCTTAC	-0.127
AATTCGCC	-0.0333
GAGGCGTA	-0.0518
ATGACTCA	0.144
GGTGAGCA	-0.192
ATAGTTAG	0.184
GGCTCCAA	-0.213
CAGTGCTA	-0.0897
CTAAATGA	0.144
AGTAGCGA	-0.0248
CAACCTGC	-0.236
CCACGGAG	-0.244
AACGTCCA	0.0151
AAATCACG	0.151
CAATCTCA	0.0572
ATGGCCCG	-0.286
CCAGGAGA	-0.134

Sample 2 — method: aptamer microarray, sandwich; form: DNA with 2'F-ANA; matrix: in vitro; tested at: 200 nM; with: Cy3 exosite-II aptamer, 400 nM; reading: higher = stronger binding; oligonucleotide: GGTTGGTGTGGTTGG
Target: Prothrombin, mature alpha-thrombin (F2, Homo sapiens, UniProt P00734)
Setting: whole 15-mer aptamer, many near background
Modification	mean fluorescence intensity
2'F-ANA at 1 2 3 4 8 10 11 12 13 15	68.8 a.u.
2'F-ANA at 3 7 8 9 10 14 15	421 a.u.
2'F-ANA at 2 3 8 9 10 15	429 a.u.
2'F-ANA at 3 4 10 12 13 14	222 a.u.
2'F-ANA at 1 3 7 13 15	275 a.u.
2'F-ANA at 1 4 5 10 11 13 14	48.2 a.u.
2'F-ANA at 1 4 7 9 10 11 12 15	95.7 a.u.
2'F-ANA at 4 6 7 13 15	158 a.u.
2'F-ANA at 1 2 3 5 6 8 13	54.9 a.u.
2'F-ANA at 1 2 10 15	56.4 a.u.
2'F-ANA at 2 3 5 7 9 11 13 14	53.7 a.u.
2'F-ANA at 1 2 5 6 9 11 12 13 15	67.4 a.u.
2'F-ANA at 1 2 5 7 8 11 14 15	50.7 a.u.
2'F-ANA at 2 4 5 6 8 9 10	46.3 a.u.
2'F-ANA at 1 3 5 6 10 12 15	53.2 a.u.
2'F-ANA at 2 4 5 7 8 9 13 14 15	95.6 a.u.

Sample 3 — method: RNA Bind-n-Seq; form: RNA; matrix: in vitro; tested at: not given; reference: input RNA pool; reading: higher = stronger binding
Target: RING finger protein unkempt homolog, zinc fingers 1-6, GST-SBP tag (UNK, Homo sapiens, UniProt Q9C0B0, residues 30-357)
Setting: RNA with constant flanks, human-mouse chimeric sites, ends assumed
Construct (chain): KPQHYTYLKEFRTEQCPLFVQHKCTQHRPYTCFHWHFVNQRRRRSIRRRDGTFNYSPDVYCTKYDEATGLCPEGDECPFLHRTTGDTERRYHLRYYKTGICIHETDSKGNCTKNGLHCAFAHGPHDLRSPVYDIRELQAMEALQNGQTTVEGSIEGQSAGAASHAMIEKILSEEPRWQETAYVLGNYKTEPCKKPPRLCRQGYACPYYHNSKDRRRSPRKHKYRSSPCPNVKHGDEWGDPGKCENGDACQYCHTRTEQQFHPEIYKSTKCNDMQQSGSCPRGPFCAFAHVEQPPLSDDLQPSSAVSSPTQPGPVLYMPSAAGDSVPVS
Oligonucleotide	bound/input enrichment [ratio]
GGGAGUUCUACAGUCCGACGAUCCCAAUUGUGGAGCAGUACUUGAAGACAAAAAAGAACUCUAAUAAUUUAAUCAUCAAGUACAUUAGCUGCCGCCUGCUGACACUCAUCAUUAUACUGUUAGCGUGUAUCUACUUGAGCUAUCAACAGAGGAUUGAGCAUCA	0.272
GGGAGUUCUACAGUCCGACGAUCCAGCCUCAGAGCCCAGACUUCCUGGAUAUCACCAACCCCAAAGCCGUAUUAGAAAAUGCAUUGAGAAACUUCGCCUGUCUGACGACUGGAGAUGUGAUUGCUAUCAACUACAAUGAGAAGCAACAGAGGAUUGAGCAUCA	0.521
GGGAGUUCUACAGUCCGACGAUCUUACCCGAGAACGAGGAUGAGCUGGAGAGCACCAAUAGGCGCUACACCAAGAGAGACUGCAGCACUUUCCUCAGAACUAGUGAGACGGGCAUCGUGGACCAGGUCAUGGUCACUCUCAACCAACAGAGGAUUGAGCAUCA	0.27
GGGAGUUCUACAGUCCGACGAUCCACACACUCUUCUGCGGGACCCUCAUCUUGCAGGCCCGGGCCUAUGUGGGACCCCGUGUGCUAGCAGUGGUGACCCGCACAGGGUUCUGCACGGCAAAAGGGGGCCUGGUGAGCUCCAUCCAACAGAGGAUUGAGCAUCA	0.0619
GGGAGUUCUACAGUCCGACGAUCGAAUCCUCCCGUGCAAAAUUUUGCAACACCAAGCUCACAGCAGCAGCAUCUUAGUCACAGUAGGGUAGCUUUAGGGCUCUGUGGCCAGGGUUUUAUUCACAUGCAGGUUUGGAAAAUGUACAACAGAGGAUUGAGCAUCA	0.638
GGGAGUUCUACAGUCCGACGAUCAAAGUGAUAACCAUGUUUGUCCAACGACAGGUAUUUUCGGAGAGCAAAGAUGAGAUUGCUUUAGUCCUCUAUGGCACAGAUGGCACUGAUAAUGCCCUUGCUGGCAAGGACCAGUAUCAGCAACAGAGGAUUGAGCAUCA	0.235
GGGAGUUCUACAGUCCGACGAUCGGCUGCUGGUGACUGUCCUGGAGUGGCUGGAGUUCCCCCGGAACCUGGCGCAGGUUAAUUUUAGAAAAUGCCAAGUAGGAAGUUUGUUGAGGGUGAAGUGGUCAGAGGCCGAUGGCCUGGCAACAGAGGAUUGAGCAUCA	3.33
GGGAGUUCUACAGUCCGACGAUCGAAUCCUACUCAGGCGGAUUUUGCAACACCAAGCUCACAGCAGCAGCAUCUUAGUCACAGUAGGGUAGCUUUAGGGCUCUGUGGCCAGGGUUUUAUUCACAUGCAGGUUUUGAAAAUGUACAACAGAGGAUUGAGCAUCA	0.508
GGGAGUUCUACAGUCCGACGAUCGCGGCAGAAUCAUGGAGGACAUGAUGGAGCUCCCCAAAGCGCGCGUCAACGCCAGCAUGUUACCACAAUUCAUCGACCGGCCCGUGUGCUUCGUGGGGAAGCUGGAAAAGAUUCAUCCCACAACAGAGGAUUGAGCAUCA	0.164
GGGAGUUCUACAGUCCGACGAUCUUGAAAACUGAUUCAAGUAAGUUUGAGUAUCACAAUGUUAGCUUUCUAAUUCCACACAAGUACUUGGUUUUUACAGUUUAUAAUCUGACAUCACCCCAGCGCCAUUUAGAUCAGCUUACUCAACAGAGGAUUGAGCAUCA	1.24
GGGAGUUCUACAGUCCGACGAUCGUAUUUGUGCGCUCCCCACUCGUGUUUUUAAGUGUAUUUUUAUAAGAUACAUGUAUUUACAAUUGAGCUUUUGUUACAUAAUGCUGAAAUGCUACUGGAGAUUAUGAAAAAAUGUUAAAUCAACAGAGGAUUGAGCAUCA	0.187

Sample 4 — method: RNA Bind-n-Seq; form: RNA; matrix: in vitro; tested at: 365 nM; reference: no-protein control; reading: higher = stronger binding
Target: RNA binding protein fox-1 homolog 2, RRM domain, GST-SBP tag (RBFOX2, Homo sapiens, UniProt O43251-10, residues 100-194)
Setting: natural RNA segment, single round, ends assumed
Residues (chain): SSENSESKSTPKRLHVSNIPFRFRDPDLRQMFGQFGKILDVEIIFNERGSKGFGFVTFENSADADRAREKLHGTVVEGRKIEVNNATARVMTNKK
Oligonucleotide	RBNS enrichment (R)
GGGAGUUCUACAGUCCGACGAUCAUUUUAAGUCUCUGUACUUGGCUACACACAGAUUGUAUUUUUAUUGUUAAUGCUCUUCUUAUGGAUACCUGCAUUUAACUUGUGGACUAUGUAAACACAAUAUCUAUCAAUGGAAUUCUCGGGUGCCAA	0.635
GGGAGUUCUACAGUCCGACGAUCGUCCAGCUCAGAUAUUGAGGGCUCUGAAGCCUAGUUCUGUCUUCUCUGGAGCAGCUGUGGCUUCCCCGUGGCUGCUUGGUGACAUGGAUUAGCGCUACGUGGGCUGCAGCUGGAAUUCUCGGGUGCCAA	0.634
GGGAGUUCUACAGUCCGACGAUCUUCAGCGGAAGGCCUCACCACCCACAGUGUGAUCCUGAGGUGCCGCCAUUGGCGGUUCUGCUGCUUCGCUGCAGGGAUAAGGUGGAGCUACCGAACAGCUGAUUCAUAUGUGGAAUUCUCGGGUGCCAA	0.227
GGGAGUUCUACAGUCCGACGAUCAAGUGCUACCUCUGAUCUAACUAGAGCAAGCUCAUGGCAGAAAAUAUCACAAACUUUAAAAUGUGAAGAUUCCUGUCUCUCCCGUGGUUUUAAAGGCAAGUGGUGUCCAAUGGAAUUCUCGGGUGCCAA	0.397
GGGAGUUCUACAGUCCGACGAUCUCCUGCUGAGCCAAAGUUUUCUCAUUACCCCUCCACUGGGGAAGCAGCUGAGGCCCAGGGCCUUGCUCCCUGGGAAAUUCUCUUCUCUCCAUCUUUCGGUGCAUUGGCCAUGGAAUUCUCGGGUGCCAA	0.391
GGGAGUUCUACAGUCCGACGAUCGUUUCUCCAGUGGCUUAGCUCCUGUUCCUUUGGGUGAUCACUAGCACCCAUUUUUGAGAAAGCUGGUUCUACAUGGGGGGAUAGCUGUGGAAUAGAUAAUUUGCUGCAUGUGGAAUUCUCGGGUGCCAA	9.87
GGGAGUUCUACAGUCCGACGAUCACAUUCAGGGUGUACAUAAACAGAAGAGUAUCAUAAUGUAUUUUUAUUAAACACUAACAUCUGAGUUUCACCUAAUCUGUUUCUGUGCCAUAUACUGGGUAUCCAAGCUCUGGAAUUCUCGGGUGCCAA	0.308
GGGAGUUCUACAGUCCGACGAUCGGGCAUAUCUUUGUUAAAGUAGAUUUUUUCAAUGUUUUACAGAAUUAAUUUUCAAAAAAAAGUUUUUAUAAUGAAGUUGUUUAUUAAAAACUUCUGAAUGAUGUGCUUUGUGGAAUUCUCGGGUGCCAA	1.32
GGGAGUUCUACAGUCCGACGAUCGAUUUCUCUUUUACCUGUACAUAUGCUAAGUAAACAGAAUUUUAAAGGCAUGCAUUUCUUACAAUCUAUGUUGACUGACAGCCUUGUGUUCCUUGAAGGUUUUGAAUUUAUGGAAUUCUCGGGUGCCAA	2.7
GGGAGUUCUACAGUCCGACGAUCUUAUAAACUAUCUGUAGCAAUUAGGGUUUUUAUUUUACAUUAAAAAUGUAAACUGCUCCCCCUCUCCCUUGCAGCCCUACGUGUUGAGGUUCUCUUGCAAUCUGUGUUAAUGGAAUUCUCGGGUGCCAA	0.382
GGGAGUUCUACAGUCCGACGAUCACAUUGUUUUGGACACUGGAAUAAUAUGAUUUAUUUUCACCUGUAAAAAUGACUUCAUUGUACUUGAACACCUUUGCAUUUCUCCAUUUGUGCCAUUUACAAGUGGAAAUUGGAAUUCUCGGGUGCCAA	0.379
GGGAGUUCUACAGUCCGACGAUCGACCAAAUUUUUUCUCAGUGUGUGUGUUUAUUCCUUAUAGGUGUAAAUGAGAAGACGUGUUUUUUUCCUUCACCGAUGCUCCAUCCUCGUAUUUCUUUUUCCUUGUAAAUUGGAAUUCUCGGGUGCCAA	1.9

Sample 5 — method: protein binding microarray; form: double-stranded DNA, one strand shown; matrix: in vitro; tested at: not given; reference: not given; reading: higher = stronger binding
Target: Histone acetyltransferase KAT6A, winged helix 1, GST fusion (KAT6A, Homo sapiens, UniProt Q92794, residues 1-85)
Setting: 8-mer, flanks averaged, mean of 2 arrays, mostly near background
Target sequence (chain): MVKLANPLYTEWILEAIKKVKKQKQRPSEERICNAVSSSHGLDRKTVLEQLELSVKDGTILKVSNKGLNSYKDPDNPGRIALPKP
Oligonucleotide	E-score
ATTCCTAG	-0.194
GCGAGGCC	0.0946
GCTCCACA	-0.0285
CGCACGTA	0.114
CATTGGGC	-0.0948
GATCCCCC	-0.0812
TAACCTAA	-0.0965
TACTGGGA	-0.0786
GATTTAAA	-0.0652
AGTGCTAG	-0.105
TAGAGTCA	-0.059
GAGAGTCA	-0.146
ATCGCGTG	0.146
GTTCGCTA	0.00717
CCGTACAC	0.174
TGTTGTAA	-0.0356
AGTTACGG	0.276
ATTACCTG	-0.0177
CACGATTA	-0.0177
CATGTAAA	0.0168
ATTGCACC	-0.106
CTGATGCA	0.0191
AGGCATGA	-0.205
ATATGGCG	0.194

Excerpt of the above (sample 2):
Modification	mean fluorescence intensity
2'F-ANA at 1 2 3 4 8 10 11 12 13 15	68.8 a.u.
2'F-ANA at 3 7 8 9 10 14 15	421 a.u.
2'F-ANA at 2 3 8 9 10 15	429 a.u.
2'F-ANA at 3 4 10 12 13 14	222 a.u.
2'F-ANA at 1 3 7 13 15	275 a.u.
2'F-ANA at 1 4 5 10 11 13 14	48.2 a.u.
2'F-ANA at 1 4 7 9 10 11 12 15	95.7 a.u.
2'F-ANA at 4 6 7 13 15	158 a.u.
2'F-ANA at 1 2 3 5 6 8 13	54.9 a.u.
2'F-ANA at 1 2 10 15	56.4 a.u.
2'F-ANA at 2 3 5 7 9 11 13 14	53.7 a.u.
2'F-ANA at 1 2 5 6 9 11 12 13 15	67.4 a.u.
2'F-ANA at 1 2 5 7 8 11 14 15	50.7 a.u.
